Results pooled from the literature.
Numbered parts are unrelated; each lists some results of a single study. Substitutions count along the parent as printed.

Sample 1
Target: CCNB3, cyclin fold, Cln2 fusion (human)
Technique: yeast growth competition, sequencing
Sample: yeast
Notes: weak parent motif
Baseline: not given
Direction: higher = stronger binding
Measurement: normalised enrichment score
Starting sequence: CDC25A docking peptide (human); PPHRRRLLFACSP; partner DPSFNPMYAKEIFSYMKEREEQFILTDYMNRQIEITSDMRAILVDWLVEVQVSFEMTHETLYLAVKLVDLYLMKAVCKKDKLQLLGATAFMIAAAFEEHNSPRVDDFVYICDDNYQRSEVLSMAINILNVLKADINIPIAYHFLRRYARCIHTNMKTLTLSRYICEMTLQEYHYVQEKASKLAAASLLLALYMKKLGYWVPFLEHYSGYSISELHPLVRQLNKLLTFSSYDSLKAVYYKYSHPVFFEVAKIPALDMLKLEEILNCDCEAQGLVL
PPHARRLLFACSP [R4A]: 0.544
PPHRRPLLFACSP [R6P]: 0.361
PPHRRRLLFACSS [P13S]: 0.203
PPHRPRLLFACSP [R5P]: -0.0609
PPHRRRLLFAHSP [C11H]: 0.121
PRHRRRLLFACSP [P2R]: 0.438
PPHRRTLLFACSP [R6T]: 0.281
PPHRRRLLFACHP [S12H]: 0.159
PPHRYRLLFACSP [R5Y]: -0.0663
PPHRRRLLFACSH [P13H]: 0.329
PPLRRRLLFACSP [H3L]: 0.401
PPHRRRLLFECSP [A10E]: 0.228
PYHRRRLLFACSP [P2Y]: 0.332
PPHRRRLLFACPP [S12P]: 0.282
PPHRRRLLFACSW [P13W]: -0.065
PPHPRRLLFACSP [R4P]: 0.476
PPHRRRLLFACSG [P13G]: 0.549
PPHRRRLLYACSP [F9Y]: 0.211
PPHRRRLLWACSP [F9W]: 0.217
PPHRRRLLFACYP [S12Y]: 0.536
PPFRRRLLFACSP [H3F]: 0.613
PPDRRRLLFACSP [H3D]: 0.568
APHRRRLLFACSP [P1A]: 0.124
PPHRRRLLFACQP [S12Q]: -0.33
PPHRRKLLFACSP [R6K]: 0.356

Sample 2
Target: Interferon regulatory factor 3, full length, phosphomimetic (IRF3, Homo sapiens, UniProt Q14653, residues 1-427, S386D/S396D/S398D/S402D/T404D/S405D)
Technique: protein-binding microarray
Form: double-stranded DNA, one strand shown
Sample: in vitro
Concentration: 2540 nM top
Notes: 60-bp whole probe
Added: salmon DNA 0.4 mg/ml
Baseline: random background probes
Direction: higher = stronger binding
Measurement: fitted relative affinity
Shared flanks, not repeated: GCCTAGCAC … GTCTTGATTCGCTTGACGCTGCTG
Residues (chain): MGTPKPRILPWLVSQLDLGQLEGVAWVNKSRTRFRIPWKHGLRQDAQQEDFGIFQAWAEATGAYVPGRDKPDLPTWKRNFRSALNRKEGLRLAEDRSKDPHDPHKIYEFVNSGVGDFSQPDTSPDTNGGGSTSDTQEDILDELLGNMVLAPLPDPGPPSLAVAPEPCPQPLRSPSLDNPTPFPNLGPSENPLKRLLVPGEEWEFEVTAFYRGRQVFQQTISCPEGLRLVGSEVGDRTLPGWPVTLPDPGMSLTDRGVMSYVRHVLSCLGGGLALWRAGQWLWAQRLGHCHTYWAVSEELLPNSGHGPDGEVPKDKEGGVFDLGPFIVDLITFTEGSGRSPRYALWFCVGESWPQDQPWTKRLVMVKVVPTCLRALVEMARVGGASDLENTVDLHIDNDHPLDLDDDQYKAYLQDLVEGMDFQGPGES
GACGGACAGGGTCTCGGGACGTGCTAG: -0.792 z-score
GACGGTCTCGGTATCCGGACGTGCTAG: 2.19 z-score
TGAGGTCTCGGACTGGGTTAGTGCTAG: -0.893 z-score
TGAGATTTCAGTATCGATTAGTGCTAG: 2.44 z-score
TTAGATATCAGTCTCGGTTAGTGCTAG: 1.38 z-score
TCACATTAAATTTTAATACTGTGCTAG: 0.6 z-score
TGGGCATTTTTTTTATCAATGTGCTAG: -0.318 z-score
TGTGTTGCAGAAACGCCATGGTGCTAG: 1.06 z-score
TTAGATCTCAGTACCGATTAGTGCTAG: 0.763 z-score
TCAATTCTGAATTCGAAACTGTGCTAG: 1.66 z-score
GTGATGTGAGGGGAGAGGGAGTGCTAG: -0.677 z-score
TTGGGTTTCCTTATCCTTTAGTGCTAG: 6.25 z-score
TTAAGTCTCCTACTGCTTTAGTGCTAG: 1.12 z-score
GACCGTATCGGGACTGGGGACGTGCTA: 2.21 z-score
GTAGGTTTCGACTATCGGTTAGTGCTA: 2.75 z-score
CCATCTCAGCCTCCCCAAGGGTGCTAG: 1.97 z-score
TTAGAGATCAGTCTCGATTAGTGCTAG: 0.825 z-score
TTAGGTACCCTTCTCCTTTAGTGCTAG: 5.79 z-score
GACGGACTGCTTCTGCTGACGTGCTAG: -0.544 z-score
TTAGATATCAGACTGGTTTAGTGCTAG: 0.0474 z-score
TTAGGTATCCTTCTCCTTGAGTGCTAG: 6.71 z-score
GACGGACTGGGTATCGGGATGTGCTAG: -0.0626 z-score
TTAGATTTCTGTCTCGATTAGTGCTAG: 2.1 z-score
TCAATATCCATTATAGAACTGTGCTAG: 1.92 z-score
TCATTTACCCATCTCCAACTGTGCTAG: 3.46 z-score

Sample 3
Target: RING finger protein unkempt homolog, zinc fingers 1-6, GST-SBP tag (UNK, Homo sapiens, UniProt Q9C0B0, residues 30-357)
UniProt Q9C0B0, sequence (30-357, looked up): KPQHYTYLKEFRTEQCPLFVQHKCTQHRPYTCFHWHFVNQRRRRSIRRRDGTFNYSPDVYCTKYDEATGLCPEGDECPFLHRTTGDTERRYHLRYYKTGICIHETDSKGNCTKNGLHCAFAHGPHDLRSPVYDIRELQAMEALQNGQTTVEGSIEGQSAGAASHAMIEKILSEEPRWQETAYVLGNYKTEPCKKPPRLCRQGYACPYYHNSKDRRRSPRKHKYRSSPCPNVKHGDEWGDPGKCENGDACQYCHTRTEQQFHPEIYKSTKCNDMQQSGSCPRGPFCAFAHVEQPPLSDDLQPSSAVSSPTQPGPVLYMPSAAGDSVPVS
Technique: RNA Bind-n-Seq
Form: RNA
Sample: in vitro
Concentration: not given
Notes: RNA with constant flanks, ends assumed
Baseline: input RNA pool
Direction: higher = stronger binding
Measurement: bound/input enrichment
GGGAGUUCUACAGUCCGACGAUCAUUGCUAUGGGAUUUCCUGCAGAAAGACUUGAAGGCGUAUACAGGAACAAUAUUGAUGAUGCCGUAAGGUUUUUGGAUUCAAAGCAUAAAAACCAUUACAAGAUAUACAAUCUUUGUGCUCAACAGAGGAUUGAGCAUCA: 0.437 ratio
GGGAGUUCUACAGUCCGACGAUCUAAUAUGUUAGUAAGUUACAUUUUAAAUAAUGCUCAUGUGACAAUACUCCCAAUCAAUGGCUUACCGAAUUUAAAGAUCUGUAUAUUAGAUUUUGGCUUAAAGGCAUGAGAAGUAUAAGACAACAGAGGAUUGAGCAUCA: 2.08 ratio
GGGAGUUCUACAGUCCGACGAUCUUUGGGCAAUGCUAUGAGUUUCUCACUCUUCAUACAGUGAAAAAGUACUUUCUUCCAAUAACCGAAAUGGUUCCACAGUUUUUAGAAAACUUAACUGAUGAAGAACUGAAAAAAGAAGCACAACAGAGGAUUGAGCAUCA: 0.319 ratio
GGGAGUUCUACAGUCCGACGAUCUUCUUGAAGGCUAUUGGGUAUCUUAUUCCUCUUAUGGAUGCAGAAUAUGCCAACUACUAUACCCGAGAAGUGAUGUUAAUCCUUAUUCGAGAAUUCCAGUCUCCUGAUGAGGAAAUGAAACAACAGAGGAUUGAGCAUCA: 0.14 ratio
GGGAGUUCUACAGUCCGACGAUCACCAGAAGAACCCUCCGGAUGUGAGCAGUCCUGGACAGAGCACGUGAGGAGGGGCCCUGGGCCCGCAGUUUGCUGGAUGGGAUUGGCUCCAAGAUGGGAGAUGAAGUCUAAAGGGUUUAUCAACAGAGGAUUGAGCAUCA: 0.186 ratio
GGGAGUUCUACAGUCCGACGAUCACGUUUUUAUGGUCCCCUAUGCCUGAACAUUAUGUGGAAGGAUCAACAGUCAAUUGUGUACCCGCAUUCCAAGGAUAUUACCUUCCAAAUGAUGAUGGAGAAUUUUAUCAGUUCUGUUACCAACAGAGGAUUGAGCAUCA: 0.163 ratio

Sample 4
Target: Prothrombin, mature alpha-thrombin (F2, Homo sapiens, UniProt P00734)
Technique: aptamer microarray, sandwich
Form: DNA with 2'F-ANA
Sample: in vitro
Concentration: 200 nM
Notes: whole 15-mer aptamer, many near background
Added: Cy3 exosite-II aptamer, 400 nM
Direction: higher = stronger binding
Measurement: mean fluorescence intensity
Oligonucleotide: GGTTGGTGTGGTTGG
2'F-ANA at 1 3 7 9 11 12 13 14: 104 a.u.
2'F-ANA at 3 5 7 9 10 11 15: 60.8 a.u.
2'F-ANA at 1 4 6 7 8 9 10 11 14 15: 46.1 a.u.
2'F-ANA at 1 3 5 9 10 12: 49.1 a.u.
2'F-ANA at 3 4 7 8 11 13 14: 403 a.u.
2'F-ANA at 1 2 3 5 6 7 9 10 11 12 14: 57.2 a.u.
2'F-ANA at 5 7 8 10 12 13 14: 43.8 a.u.
2'F-ANA at 2 6 9 11 12 15: 498 a.u.
2'F-ANA at 2 4 6 8 9 14: 92.9 a.u.
2'F-ANA at 3 8 10 11 12 15: 555 a.u.
2'F-ANA at 1 2 3 4 5 9 12 14 15: 48.4 a.u.
2'F-ANA at 1 2 4 7 8 9 11 14 15: 73.2 a.u.
2'F-ANA at 1 3 4 5 6 7 12 14: 47.5 a.u.
2'F-ANA at 3 5 6 7 10 11 12 13 14: 48.2 a.u.
2'F-ANA at 1 2 3 4 5 6 7 9 12 13 15: 71.5 a.u.
2'F-ANA at 2 3 4 6 7 8 10 11 14 15: 150 a.u.
2'F-ANA at 2 4 6 7 8 9 14: 87.7 a.u.
2'F-ANA at 3 4 9 10 12 14 15: 219 a.u.
2'F-ANA at 3 4 5 6 9 10 13 14: 54.9 a.u.
2'F-ANA at 4 5 9 10 13 14 15: 52 a.u.
2'F-ANA at 1 4 5 6 12 13: 69.3 a.u.
2'F-ANA at 4 5 7 9 12 13: 80 a.u.
2'F-ANA at 2 4 5 7 8 12 14: 52.1 a.u.
2'F-ANA at 1 3 6 7 10 11 12 15: 87.6 a.u.
2'F-ANA at 1 2 4 6 9 10 12 13 15: 64.7 a.u.

Sample 5
Target: ABI1, truncated, D143A, DHFR fusion (Arabidopsis thaliana)
Technique: DHFR PCA, deep sequencing
Sample: yeast
Notes: methotrexate growth selection, single substitutions
Added: (+)-ABA 0.032 µM
Baseline: wild-type fitted maximum
Direction: higher = stronger binding
Measurement: relative binding score
Starting sequence: PYL1, truncated, DHFR fusion (Arabidopsis thaliana); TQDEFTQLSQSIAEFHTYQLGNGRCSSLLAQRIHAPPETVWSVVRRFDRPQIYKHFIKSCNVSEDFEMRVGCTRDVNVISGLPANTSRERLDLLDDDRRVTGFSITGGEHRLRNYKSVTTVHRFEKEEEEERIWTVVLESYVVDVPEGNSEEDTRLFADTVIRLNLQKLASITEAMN; partner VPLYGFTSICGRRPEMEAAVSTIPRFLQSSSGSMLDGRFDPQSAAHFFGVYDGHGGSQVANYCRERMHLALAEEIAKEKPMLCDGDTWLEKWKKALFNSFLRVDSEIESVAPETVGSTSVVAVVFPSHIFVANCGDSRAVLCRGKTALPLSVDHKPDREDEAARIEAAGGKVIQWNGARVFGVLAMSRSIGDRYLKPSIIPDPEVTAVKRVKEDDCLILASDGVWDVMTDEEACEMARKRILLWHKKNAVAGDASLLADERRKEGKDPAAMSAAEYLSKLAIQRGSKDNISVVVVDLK
R98Q: 11%
L164W: 7.45%
F47A: -1.94%
V143F: -3.92%
E174V: -1.51%
K126L: 27.5%
G102V: 0.956%
K126F: 17.7%
E127P: 47.2%
L164I: 2.67%
T160W: -4.67%
H110N: 67.3%
R98N: 10.2%
I162M: 2.75%
L93C: 9.21%
V161P: 4.14%
S140H: 4.89%

Repeated from above (sample 4):
2'F-ANA at 1 2 3 5 6 7 9 10 11 12 14: 57.2 a.u.
2'F-ANA at 2 6 9 11 12 15: 498 a.u.
2'F-ANA at 5 7 8 10 12 13 14: 43.8 a.u.
2'F-ANA at 1 2 3 4 5 6 7 9 12 13 15: 71.5 a.u.
2'F-ANA at 1 4 5 6 12 13: 69.3 a.u.
2'F-ANA at 2 4 6 8 9 14: 92.9 a.u.
2'F-ANA at 3 4 9 10 12 14 15: 219 a.u.
2'F-ANA at 2 3 4 6 7 8 10 11 14 15: 150 a.u.
2'F-ANA at 2 4 6 7 8 9 14: 87.7 a.u.
2'F-ANA at 4 5 9 10 13 14 15: 52 a.u.
2'F-ANA at 1 2 4 6 9 10 12 13 15: 64.7 a.u.
2'F-ANA at 3 5 6 7 10 11 12 13 14: 48.2 a.u.
2'F-ANA at 3 4 5 6 9 10 13 14: 54.9 a.u.
2'F-ANA at 1 3 4 5 6 7 12 14: 47.5 a.u.
2'F-ANA at 3 4 7 8 11 13 14: 403 a.u.
2'F-ANA at 4 5 7 9 12 13: 80 a.u.
